Published values pooled from the literature.
± gives the spread as reported.
Cell line: A549

| Compound | assay | conditions | scale | measurement | result |
| --- | --- | --- | --- | --- | --- |
| CCNc1cc2c(cc1C)C1(c3cc(C)c(NCC)cc3O2)c2ccccc2C(=O)N1N=Cc1c[c-]c(-c2ccccn2)cc1.Cc1c(C)c(-c2ccc(-c3ccccc3)cc2)[c-](C)c1C.[Cl-].[Ir+3] | DCFH-DA flow cytometry | 0.5 × IC50, 24 h | relative to: untreated | ROS level | 2.5 fold |
| [Cl-].[Cl-].[Ru+2].c1ccc2nc(-c3ccc4ccccc4n3)ccc2c1.c1ccc2nc(-c3ccc4ccccc4n3)ccc2c1.c1cnc2c(c1)ccc1cccnc12 | Seahorse Mito Stress Test | concentration not given, added: 450 nm light 29.1 J/cm2 | relative to: vehicle | maximal respiration reduction | < 30% |
| S=c1n(-c2ccccc2)c2c3ccccc3nc3[n+]2[n]1[Ir-3]12([S]3)([c]3ccccc3-c3cccc[n+]31)[c]1ccccc1-c1cccc[n+]12 | – | – | relative to: IC50 dark over IC50 light | phototoxicity index | > 1850 |
| COc1ccc(/C=C/C2=[N+]3C(=C(CO)c4c(C)cc(/C=C/c5ccc(OC)cc5)n4[B-]3(F)F)C(C)=C2C=O)cc1 | resazurin | added: 645 nm light | relative to: dark over light IC50 | phototoxicity index | 12 ± 1 |
| O=C1Nc2ccccc2/C1=N\Nc1nnc2n1N=C(c1ccc(Cl)cc1)CS2 | – | 10 µM | – | growth inhibition | 18% |
| FC(F)(F)c1ccnc(-c2cc(C(F)(F)F)ccn2)c1.FC(F)(F)c1ccnc(-c2cc(C(F)(F)F)ccn2)c1.[Cl-].[Cl-].[Ru+2].c1csc(-c2ccc(-c3ccc(-c4ccc(-c5nc6c7cccnc7c7ncccc7c6[nH]5)s4)s3)s2)c1 | cell growth or viability, resazurin | dark | – | EC50 | 120 µM |
| CCCC1OC2CC3C4CCC5=CC(=O)C=CC5(C)C4C(O)CC3(C)C2(C(=O)COC(=O)CN(CC)CC)O1 (stereo not shown) | IL-6 release, inhibitor, ELISA | 1 nM, 24 h, LPS-stimulated | – | inhibition | > 50% |
| Cc1ccc2ccc3ccc(C)nc3c2n1.Cc1ccc2ccc3ccc(C)nc3c2n1.Clc1ccc(-c2cc(-c3ccccn3)nn2-c2ccccc2)cc1.[Cl-].[Cl-].[Ru+2] | oxygen consumption rate, Seahorse extracellular flux | 1 h, added: indigo light 450 nm, 29.1 J/cm2 | – | lowest concentration inhibiting OCR | 10 µM |
| CCOC(=O)C1=C(C)NC(=O)N[C@@H]1/C=C/c1ccc(OC)cc1 | – | 7 and 15 µM, 24 h | relative to: vehicle DMSO | colony formation | decreased |
| Cc1cc(-c2ccccc2)c2ccc3c(-c4ccccc4)cc(C)nc3c2n1.[Cl-].[Cl-].[Ru+2].c1ccc(-c2ccccn2)nc1.c1ccc(-c2ccccn2)nc1 | LC-MS/MS | 3 µM | – | time to plateau uptake | 12 h |
| CC(C)OC1(CO)CCC2C(C)(CO)C(O)CCC2(C)C1C=CC1=CCOC1=O (stereo not shown) | cell growth or viability, MTT | 20 µM, 48 h | – | inhibition | 13.2% |
| CC/C=C\C/C=C\C/C=C\C/C=C\C/C=C\C/C=C\CCC(=O)Nc1ccn(C2OC(CO)C(O)C2(F)F)c(=O)n1 (stereo not shown) | NCI60 screen | – | – | TGI | 15.4 µM |
| Cc1cccc(-c2cccc(C)n2)n1.[Cl-].[Cl-].[Ru+2].c1ccc(-c2ccccn2)nc1.c1ccc(-c2ccccn2)nc1 | oxygen consumption rate, Seahorse extracellular flux | 1 h, added: indigo light 450 nm, 29.1 J/cm2 | – | lowest concentration inhibiting OCR | > 25 µM |
| CCN1CCC2(CC1)C/C(=N\NC(=O)Nc1ccccc1)c1ccccc1O2 | annexin V-FITC/PI | concentration not given, 24 h, Late apoptosis | – | apoptotic cells | 11.5% |
| CC(=O)OC[C@H]1O[C@@H](Sc2sc(C(=O)c3ccc(Br)cc3)c(N)c2-c2nc3ccccc3s2)[C@H](OC(C)=O)[C@@H](OC(C)=O)[C@@H]1OC(C)=O | SRB | 10 µM, 48 h | – | growth | 71.5% |
| COc1ccc([C@@H]2CC(=O)c3c(O)cc(O[C@@H]4O[C@H](CO[C@@H]5O[C@@H](C)[C@H](O)[C@@H](O)[C@H]5O)[C@@H](O[C@H]5O[C@H](CO)[C@@H](O)[C@H](O)[C@H]5O)[C@H](O)[C@H]4O)cc3O2)cc1O | trypan blue exclusion | 50 µg/mL, 24 h | – | cell count | 13300 ± 389 |

| Compound | assay | conditions | scale | measurement | result |
| --- | --- | --- | --- | --- | --- |
| COCc1nc(C(F)(F)F)[nH]c1-c1cc(C(=O)N2CC(c3ccc(C#N)cc3)C2)c(C)cc1C | tubulin palmitoylation, acyl-biotin exchange Western blot, refers to: palmitoyl-α-tubulin | 50 nM, 72 h | – | inhibition | 67% |
| CC(=O)O[C@@H]1CC[C@@]2(C)[C@@H](CC[C@]3(C)[C@@H]2C(=O)C=C2[C@@H]4[C@@H](C)[C@H](C)CC[C@]4(C)CC[C@]23C)[C@@]1(C)C(=O)NCCNC(=O)CCCCCCCCCC[P+](c1ccccc1)(c1ccccc1)c1ccccc1 | MTT | – | relative to: AKBA over compound IC50, higher = more potent than AKBA | antiproliferative potency ratio | ≤ 20 fold |
| O=C1Nc2ccc(Cl)cc2/C1=N/Nc1nnc(Cc2ccccc2)c2ccccc12 | – | concentration not given, added: serum stimulation | – | tyrosine phosphorylation | no effect |
| O=C(NCc1cc(F)cc(F)c1)[C@@]1(O)CCN(c2ccc3[nH]ccc3c2)C1=O | – | 1e-05, 2.5e-06, 5e-07 mol/L | – | colony formation | inhibited |
| N.N.[Cl][Pt+].c1ccc2c(c1)cnc1ccccc12 | – | 0.5 µM, 24 h | – | cells with NPM1 translocation | 49% |
| C[C@H]1CN(C(=O)c2cn(-c3ccnc(N)n3)c3cc(C#CC4(O)CCCCC4)ccc23)CCN1 | western blot, refers to: PAK4 and LIMK1 | concentration not given, 24 h | – | phosphorylation | inhibited |
| Nc1cccc[n+]1Cc1cccc(C[n+]2ccccc2N)c1 | flow cytometry | 15 µM, 24 h | – | cell population in G0/G1 phase | 36.8% |
| FC(F)(F)c1ccnc(-c2cc(C(F)(F)F)ccn2)c1.FC(F)(F)c1ccnc(-c2cc(C(F)(F)F)ccn2)c1.[Cl-].[Cl-].[Ru+2].c1csc(-c2ccc(-c3ccc(-c4nc5c6cccnc6c6ncccc6c5[nH]4)s3)s2)c1 | cell viability | 100 J/cm2 light, normoxia, added: visible light 400-700 nm | – | EC50 | 0.7 µM |
| [Cl-].[Cl-].[Ru+2].c1ccc(-c2ccnc3c2ccc2c(-c4ccccc4)ccnc23)cc1.c1cnc2c(c1)ccc1cccnc12.c1cnc2c(c1)ccc1cccnc12 | oxygen consumption rate, Seahorse extracellular flux | 1 h, dark | – | lowest concentration inhibiting OCR | > 1 µM |
| Cc1cc(Nc2cc(CN3CCN(C)CC3)cc(NC(=O)c3cccc(Nc4ccnc5ccccc45)c3)c2)nc(N)n1 | – | – | – | time to peak ATM autophosphorylation | 2 h |
| COc1ccc([C@@H]2CC(=O)c3c(O)cc(O[C@@H]4O[C@H](CO[C@@H]5O[C@@H](C)[C@H](O)[C@@H](O)[C@H]5O)[C@@H](O)[C@H](O)[C@H]4O)cc3O2)cc1O | cell migration, scratch | 150 µg/mL, 0 h | – | gap closure | 0% |
| C[C@@H]1NC(=O)[C@H](CCC(=O)O)NC(=O)CNC(=O)[C@H](CC(=O)O)NC(=O)CNC(=O)[C@H](CCCCNC(=O)CCCCCNC(=O)[C@H](CS)NC(=O)CCCCCNC(=O)CN2CCN(CC(=O)O)CCN(CC(=O)O)CCN(CC(=O)O)CC2)NC(=O)[C@@H](Cc2ccc(O)cc2)NC1=O [gallium-68 labelled] | – | 5 to 90 min, 37 °C | relative to: added radioactivity | cellular uptake | < 1% |
| COc1ccc2c(c1)c(CC(=O)Nc1nnc(CCCCc3ccc(NC(=O)Cc4cccc(OC(F)(F)F)c4)nn3)[se]1)cn2C | EZMTT | concentration not given, 120 h | – | growth inhibition | 60 to 80% |
| CC(C)=CCn1c2ccc(Br)c(=O)c-2nc2ccccc21 | cytotoxicity, WST-8 | – | relative to: IC50 MRC5 over IC50 A549 | selectivity index | 1.64 |
| CC(=O)c1cccc(NC2C(NC(=O)OCc3ccccc3)C(NC(=O)N(C)C)(C(C)O)C(C)(O)C2(O)COC(=O)c2c(C)cccc2O)c1 (stereo not shown) | cell growth or viability | – | – | EC50 | 11.8 µM |

Excerpt of the above:
| Compound | assay | conditions | scale | measurement | result |
| --- | --- | --- | --- | --- | --- |
| CC(=O)OC[C@H]1O[C@@H](Sc2sc(C(=O)c3ccc(Br)cc3)c(N)c2-c2nc3ccccc3s2)[C@H](OC(C)=O)[C@@H](OC(C)=O)[C@@H]1OC(C)=O | SRB | 10 µM, 48 h | – | growth | 71.5% |
| COc1ccc([C@@H]2CC(=O)c3c(O)cc(O[C@@H]4O[C@H](CO[C@@H]5O[C@@H](C)[C@H](O)[C@@H](O)[C@H]5O)[C@@H](O[C@H]5O[C@H](CO)[C@@H](O)[C@H](O)[C@H]5O)[C@H](O)[C@H]4O)cc3O2)cc1O | trypan blue exclusion | 50 µg/mL, 24 h | – | cell count | 13300 ± 389 |
| COCc1nc(C(F)(F)F)[nH]c1-c1cc(C(=O)N2CC(c3ccc(C#N)cc3)C2)c(C)cc1C | tubulin palmitoylation, acyl-biotin exchange Western blot, refers to: palmitoyl-α-tubulin | 50 nM, 72 h | – | inhibition | 67% |
